Results of several laboratories.
Lines come from different studies, so protocols differ. ± gives the spread as reported. The star is where a group is joined.
lasR: Transcriptional activator protein LasR (lasR, Pseudomonas aeruginosa, UniProt P25084)
Chain of UniProt P25084 (whole entry, looked up): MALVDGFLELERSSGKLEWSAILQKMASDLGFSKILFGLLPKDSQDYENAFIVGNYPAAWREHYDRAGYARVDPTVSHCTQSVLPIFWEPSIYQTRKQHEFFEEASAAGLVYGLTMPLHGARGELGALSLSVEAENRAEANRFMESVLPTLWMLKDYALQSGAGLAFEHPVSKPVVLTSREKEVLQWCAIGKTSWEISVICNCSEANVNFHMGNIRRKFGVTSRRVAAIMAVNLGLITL
Kelch domain-containing protein 2: Kelch domain-containing protein 2 (UniProt Q9Y2U9)
Chain of UniProt Q9Y2U9 (whole entry, looked up): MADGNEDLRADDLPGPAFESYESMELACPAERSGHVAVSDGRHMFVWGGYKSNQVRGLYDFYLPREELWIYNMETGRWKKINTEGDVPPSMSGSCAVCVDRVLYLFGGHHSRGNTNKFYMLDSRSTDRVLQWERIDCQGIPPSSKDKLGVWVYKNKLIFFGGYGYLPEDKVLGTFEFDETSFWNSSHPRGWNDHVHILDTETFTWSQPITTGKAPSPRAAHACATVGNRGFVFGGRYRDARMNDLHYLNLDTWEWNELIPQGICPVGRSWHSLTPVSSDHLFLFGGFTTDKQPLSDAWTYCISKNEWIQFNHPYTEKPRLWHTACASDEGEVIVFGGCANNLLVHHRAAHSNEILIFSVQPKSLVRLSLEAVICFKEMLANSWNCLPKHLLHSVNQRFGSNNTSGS
ESR2: Estrogen receptor beta (ESR2, Homo sapiens, UniProt Q92731)
Chain of UniProt Q92731 (whole entry, looked up): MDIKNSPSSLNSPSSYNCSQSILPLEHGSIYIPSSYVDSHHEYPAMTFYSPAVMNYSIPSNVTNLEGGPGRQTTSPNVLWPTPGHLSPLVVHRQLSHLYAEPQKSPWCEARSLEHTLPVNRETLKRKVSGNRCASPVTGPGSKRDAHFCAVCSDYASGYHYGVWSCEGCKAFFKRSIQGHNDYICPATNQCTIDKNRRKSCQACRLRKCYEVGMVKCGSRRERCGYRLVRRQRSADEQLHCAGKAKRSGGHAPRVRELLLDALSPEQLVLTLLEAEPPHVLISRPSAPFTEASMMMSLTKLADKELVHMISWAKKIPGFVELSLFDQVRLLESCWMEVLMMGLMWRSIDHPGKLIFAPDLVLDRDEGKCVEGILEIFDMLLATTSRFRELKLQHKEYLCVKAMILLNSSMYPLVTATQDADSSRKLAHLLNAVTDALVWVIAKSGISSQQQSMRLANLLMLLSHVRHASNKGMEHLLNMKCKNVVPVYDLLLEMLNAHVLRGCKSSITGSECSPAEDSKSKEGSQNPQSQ
Chain of UniProt P69905 (whole entry, looked up): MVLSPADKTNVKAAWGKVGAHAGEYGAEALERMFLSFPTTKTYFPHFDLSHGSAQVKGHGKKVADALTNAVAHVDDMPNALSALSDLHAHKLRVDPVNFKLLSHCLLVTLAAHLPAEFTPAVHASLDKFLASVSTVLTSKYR
Chain of UniProt P34972 (whole entry, looked up): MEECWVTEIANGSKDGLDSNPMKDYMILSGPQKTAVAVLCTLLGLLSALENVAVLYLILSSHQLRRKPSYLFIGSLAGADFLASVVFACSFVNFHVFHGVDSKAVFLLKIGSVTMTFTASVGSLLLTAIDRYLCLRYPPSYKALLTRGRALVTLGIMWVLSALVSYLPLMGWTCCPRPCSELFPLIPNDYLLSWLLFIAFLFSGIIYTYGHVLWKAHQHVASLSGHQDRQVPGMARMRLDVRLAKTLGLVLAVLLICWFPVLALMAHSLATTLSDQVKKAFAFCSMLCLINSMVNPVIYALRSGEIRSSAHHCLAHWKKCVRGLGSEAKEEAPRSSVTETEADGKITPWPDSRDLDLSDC
Chain of UniProt P03372 (whole entry, looked up): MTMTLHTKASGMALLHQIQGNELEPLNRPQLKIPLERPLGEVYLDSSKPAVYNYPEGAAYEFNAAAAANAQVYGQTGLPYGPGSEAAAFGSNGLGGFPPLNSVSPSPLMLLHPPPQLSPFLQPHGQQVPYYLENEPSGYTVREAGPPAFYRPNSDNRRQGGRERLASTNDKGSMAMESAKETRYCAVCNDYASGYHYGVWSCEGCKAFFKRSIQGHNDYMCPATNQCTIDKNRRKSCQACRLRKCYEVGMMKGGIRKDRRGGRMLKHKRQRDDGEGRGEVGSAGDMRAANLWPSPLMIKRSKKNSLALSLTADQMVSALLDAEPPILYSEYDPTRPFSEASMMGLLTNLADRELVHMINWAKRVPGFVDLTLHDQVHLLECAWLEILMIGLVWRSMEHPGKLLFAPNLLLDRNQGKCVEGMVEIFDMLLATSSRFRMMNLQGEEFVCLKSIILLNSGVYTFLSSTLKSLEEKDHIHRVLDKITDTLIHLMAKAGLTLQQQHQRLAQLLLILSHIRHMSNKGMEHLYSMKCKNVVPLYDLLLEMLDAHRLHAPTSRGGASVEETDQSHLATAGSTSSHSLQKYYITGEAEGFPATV
Chain of UniProt P35372 (whole entry, looked up): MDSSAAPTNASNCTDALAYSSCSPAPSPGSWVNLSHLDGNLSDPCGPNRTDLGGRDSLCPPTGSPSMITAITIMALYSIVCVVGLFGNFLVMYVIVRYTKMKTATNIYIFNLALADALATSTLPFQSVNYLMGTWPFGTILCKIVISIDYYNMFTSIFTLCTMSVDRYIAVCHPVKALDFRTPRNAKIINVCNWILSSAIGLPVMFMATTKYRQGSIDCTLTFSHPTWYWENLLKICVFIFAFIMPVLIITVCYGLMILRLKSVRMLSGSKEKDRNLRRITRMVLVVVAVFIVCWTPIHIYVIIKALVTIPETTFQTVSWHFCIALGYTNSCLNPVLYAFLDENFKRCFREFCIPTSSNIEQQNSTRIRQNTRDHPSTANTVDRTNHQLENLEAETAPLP
Chain of UniProt Q01959 (whole entry, looked up): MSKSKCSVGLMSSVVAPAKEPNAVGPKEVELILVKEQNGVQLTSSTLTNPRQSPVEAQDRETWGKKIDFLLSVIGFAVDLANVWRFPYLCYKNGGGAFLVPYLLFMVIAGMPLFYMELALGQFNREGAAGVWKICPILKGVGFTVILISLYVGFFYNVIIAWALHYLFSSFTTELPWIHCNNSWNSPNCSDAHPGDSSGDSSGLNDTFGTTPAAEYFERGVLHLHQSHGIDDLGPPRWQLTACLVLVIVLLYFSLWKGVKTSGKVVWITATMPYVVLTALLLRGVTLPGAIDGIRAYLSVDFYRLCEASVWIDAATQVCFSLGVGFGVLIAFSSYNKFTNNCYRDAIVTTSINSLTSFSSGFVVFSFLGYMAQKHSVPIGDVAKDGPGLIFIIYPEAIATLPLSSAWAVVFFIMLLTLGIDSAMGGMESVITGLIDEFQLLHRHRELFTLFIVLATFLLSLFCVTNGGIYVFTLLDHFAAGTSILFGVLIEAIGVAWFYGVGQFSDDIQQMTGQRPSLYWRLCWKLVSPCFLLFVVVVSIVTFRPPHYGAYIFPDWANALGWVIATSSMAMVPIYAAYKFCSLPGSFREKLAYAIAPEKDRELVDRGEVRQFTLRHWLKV
Chain of UniProt P00163 (whole entry, looked up): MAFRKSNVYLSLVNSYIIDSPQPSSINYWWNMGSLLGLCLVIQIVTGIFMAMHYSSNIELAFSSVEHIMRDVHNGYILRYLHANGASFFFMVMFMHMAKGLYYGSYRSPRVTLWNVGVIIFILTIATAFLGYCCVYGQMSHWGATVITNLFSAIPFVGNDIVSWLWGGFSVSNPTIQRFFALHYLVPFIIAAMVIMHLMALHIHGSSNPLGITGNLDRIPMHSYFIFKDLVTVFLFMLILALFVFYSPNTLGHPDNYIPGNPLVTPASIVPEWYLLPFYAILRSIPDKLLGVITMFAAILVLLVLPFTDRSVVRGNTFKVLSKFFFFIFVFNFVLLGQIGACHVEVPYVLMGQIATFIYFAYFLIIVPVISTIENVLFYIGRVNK
Chain of UniProt P08067 (whole entry, looked up): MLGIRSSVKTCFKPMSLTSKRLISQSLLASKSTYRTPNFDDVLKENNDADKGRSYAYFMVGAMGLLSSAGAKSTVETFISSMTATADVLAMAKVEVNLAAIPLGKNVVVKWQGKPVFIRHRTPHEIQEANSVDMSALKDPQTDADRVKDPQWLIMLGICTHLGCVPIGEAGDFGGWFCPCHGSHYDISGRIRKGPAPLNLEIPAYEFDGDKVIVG
Chain of UniProt P55212 (whole entry, looked up): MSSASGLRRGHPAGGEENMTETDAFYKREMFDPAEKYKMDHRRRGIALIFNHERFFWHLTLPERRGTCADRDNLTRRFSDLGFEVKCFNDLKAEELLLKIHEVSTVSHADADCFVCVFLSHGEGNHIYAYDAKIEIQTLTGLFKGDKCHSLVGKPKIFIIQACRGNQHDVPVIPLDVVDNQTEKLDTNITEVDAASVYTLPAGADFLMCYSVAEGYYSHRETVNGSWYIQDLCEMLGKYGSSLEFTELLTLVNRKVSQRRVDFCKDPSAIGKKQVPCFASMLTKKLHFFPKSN
Chain of UniProt P07148 (whole entry, looked up): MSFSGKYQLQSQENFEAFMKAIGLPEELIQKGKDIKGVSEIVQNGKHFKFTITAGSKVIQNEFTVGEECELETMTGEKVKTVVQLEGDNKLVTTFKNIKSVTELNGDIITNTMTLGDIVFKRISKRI

Molecule	target	assay	test system	conditions	scale	endpoint	result
O=C(O)[C@H]1/C(=C/CO)O[C@@H]2CC(=O)N21	Metallo-beta-lactamase VIM-2 (VIM-2, Escherichia coli, UniProt Q5U7L7)	enzyme activity, inhibitor	–	50 µM	–	inhibition	≤ 25%
O=C(Cc1ccc(F)cc1)NC1CCOC1=O (stereo not drawn)	lasR	reporter gene, agonist	Escherichia coli JLD271/pJN105L/pSC11	100 µM	reference: OdDHL 100 µM	activation	12%
MKVAVLGAAGG	Kelch domain-containing protein 2	native mass spectrometry	peptide, 200 mM ammonium acetate	20 µM Kelch domain-containing protein 2, pH 7	reference: total Kelch domain-containing protein 2 signal	fraction of protein bound	0.9%
NCCCC(=O)O	Drosophila RDL receptor residue 254	–	–	log EC50 vs cation-π binding	–	fluorination plot slope	-0.11
CC(C)[C@H](NC(=O)[C@H](CC(=O)O)NC(=O)[C@@H](NC(=O)[C@H](CCC(=O)O)NC(=O)[C@@H](NC(=O)[C@H](C)NC(=O)[C@H](CCCCN)NC(=O)[C@H](C)NC(=O)[C@H](CC(N)=O)NC(=O)[C@H](CO)NC(=O)[C@H](CS)NC(=O)[C@H](CC(N)=O)NC(=O)[C@H](CC(N)=O)NC(=O)[C@H](CCCCN)NC(=O)[C@H](CC(=O)O)NC(=O)CNC(=O)[C@H](CO)NC(=O)CNC(=O)[C@H](CO)NC(=O)CCCC[C@@H]1SC[C@@H]2NC(=O)N[C@@H]21)C(C)C)[C@@H](C)O)C(=O)O	Disks large homolog 1, PDZ1-2 domains (DLG1, Homo sapiens, UniProt Q12959)	binding, surface plasmon resonance	–	with: immobilized Kv1.4 peptide	–	koff	0.0135 s⁻¹
COC(=O)[C@H]1[C@@H](c2ccc(Cl)c(Cl)c2)C[C@@H]2CC[C@H]1N2CCOCCOCCOCCOCCOCCNC(=O)c1ccc2c(c1)C1(OC2=O)c2ccc(N3CCC3)cc2[Si](C)(C)c2cc(N3CCC3)ccc21	Sodium-dependent dopamine transporter (SLC6A3, Homo sapiens, UniProt Q01959)	dSTORM, DBSCAN clustering	CAD expressing SLC6A3	10 nM	–	fraction in nanodomains	0.31
anthraquinone-neomycin	poly(dA)•2poly(dT) triplex	DNA binding	–	concentration not given, pH 5.5, KCl 150 mM	–	heat capacity change	-110 ± 15 cal/(mol·K)
Oc1ccc(-c2cc(Br)c(-c3ccc(O)cc3F)[se]2)c(F)c1	Estrogen receptor (ESR1, Homo sapiens, UniProt P03372)	antagonist	HEK293T	highest tested concentration, with: estradiol 10 nM	reference: estradiol alone	efficacy	87 ± 6%
Cc1cc(C(=O)N[C@H](CN2CCN(c3cccc(O)c3)[C@@H](C)C2)C(C)C)ccc1Oc1ccccc1	Mu-type opioid receptor (OPRM1, Homo sapiens, UniProt P35372)	antagonist	CHO	with: DAMGO	–	Ke	15 ± 2 nM
Cc1cc(-c2cc(-c3ccc(O)c(C)c3)c(-c3ccc(O)c(C)c3)[se]2)ccc1O	ESR2	antagonist	HEK293T	highest tested concentration, 24 h, with: estradiol 10 nM	reference: estradiol alone	efficacy	82 ± 2%
Nc1ncnc2c1ncn2[C@@H]1O[C@H](COP(=O)(O)OP(=O)(O)O)[C@@H](O)[C@H]1O	matB (Rhodopseudomonas palustris, UniProt Q6ND88, C106A/K488A/Q457C/R286C)	nucleotide binding	–	0.5 µM protein, pH 7.0, 20 °C, 10 mM MgCl2	reference: saturating ligand over no ligand	fluorescence ratio	2.6 ± 0.1
CC(C)(NC(=O)c1nn(Cc2ccc(F)cc2)c2ccccc12)C1CCN(CC(N)=O)CC1	Cannabinoid receptor 2 (CNR2, Homo sapiens, UniProt P34972)	calcium mobilization, agonist	CHO-K1 expressing Gαq16	–	reference: CP55,940 maximum	Emax	62 ± 2%
O=C(O)c1ccccc1-c1cccnc1	pqsE (Pseudomonas aeruginosa, UniProt P20581)	thermal stability, DSF	–	–	–	ΔTm	8.7 °C
GYWSDYWGMTTH	HIV-1 neutralising antibody 4E10	phage binding, M13 phage ELISA	peptide	concentration not given	lower = stronger binding	binding titer	2.3e+08 M13/mL
CCCCC/C=C\C/C=C\C/C=C\C/C=C\CCCC(=O)NCCO	Fatty acid-binding protein, liver (FABP1, Homo sapiens, UniProt P07148)	binding, DAUDA displacement	–	concentration not given	reference: no competitor	remaining fluorescence	66 ± 5.7%
CC(=O)OCc1ccc(C=O)o1	Hemoglobin subunit alpha, with sickle beta chain (HBA1, Homo sapiens, UniProt P69905)	oxygen affinity	sickle red cell lysate	2000 µM	reference: untreated	P50 change	44.6 ± 11.9%
Oc1ccc(-c2cc(Br)c(-c3ccc(O)c(Cl)c3)[se]2)cc1Cl	ESR2	antagonist	HEK293T	highest tested concentration, 24 h, with: estradiol 10 nM	reference: estradiol alone	efficacy	125 ± 20%
SHPQFEKGGGSGGGSGG	Kelch domain-containing protein 2	native mass spectrometry	peptide, 200 mM ammonium acetate	20 µM Kelch domain-containing protein 2, pH 7	reference: total Kelch domain-containing protein 2 signal	fraction of protein bound	0.3%
O=C(Cc1cccc(Cl)c1)NC1CCOC1=O (stereo not drawn)	lasR	reporter gene, agonist	Escherichia coli JLD271/pJN105L/pSC11	100 µM	reference: OdDHL 100 µM	activation	30%
Ac-LDEVD-pNA (N-acetyl, C-pNA; pNA = O=[N+]([O-])c1ccc(N*)cc1)	Caspase-6 (CASP6, Homo sapiens, UniProt P55212)	substrate, colorimetric p-nitroanilide release	–	pH 7.25	–	kcat	0.5 ± 0.05 s⁻¹
CC(CCCCCC(F)(F)F)CC1=C(O)C(=O)c2ccccc2C1=O (stereo not drawn)	COB/RIP1, center P (Saccharomyces cerevisiae, UniProt P00163+P08067)	center P first turnover	–	concentration not given, preincubated with oxidized enzyme, with: quinol	–	cytochrome b reduction	no inhibition

Repeated from above:
Molecule	target	assay	test system	conditions	scale	endpoint	result
Oc1ccc(-c2cc(Br)c(-c3ccc(O)cc3F)[se]2)c(F)c1	Estrogen receptor (ESR1, Homo sapiens, UniProt P03372)	antagonist	HEK293T	highest tested concentration, with: estradiol 10 nM	reference: estradiol alone	efficacy	87 ± 6%
